Results gathered from unrelated publications.
Each line is one published result; not all experiments were run side by side. Several values in a cell are separate wells, animals, samples, runs or records. ± gives the spread as reported.

| SMILES | test | system | conditions | endpoint | result |
| --- | --- | --- | --- | --- | --- |
| CC1(C)CC[C@@]2(CO)C(=C3C=C[C@@H]4[C@@]5(C)CC[C@H](O)[C@@](C)(CO)[C@@H]5CC[C@@]4(C)[C@]3(C)C[C@@H]2O)C1 | UHPLC-MS/MS | mouse, plasma | oral, 50 mg/kg of saikosaponin a, 1 h | plasma concentration | 0 µg/mL |
| CC[C@H](C)[C@H](NC(=O)[C@H](CCCNC(=N)N)NC(=O)[C@H](Cc1c[nH]cn1)NC(=O)[C@@H](N)[C@@H](C)O)C(=O)N[C@@H](CC(C)C)C(=O)N[C@@H](CCCNC(=N)N)C(=O)N[C@@H](CCCNC(=N)N)C(=O)N[C@@H](CC(C)C)C(=O)N[C@@H](Cc1ccccc1)C(=O)N[C@@H](CC(N)=O)C(=O)N[C@@H](CC(C)C)C(=O)N[C@@H](CS)C(N)=O | – | male C57BL/6J mouse, plasma | intraperitoneal | plasma half-life | < 10 min |
| Cc1ccc(OCC(=O)N(Cc2cccs2)c2ccn[nH]2)cc1 | – | mouse, CD-1, male, plasma | oral, 30 mg/kg, 0.5 h | plasma concentration | 0.222 µM |
| O=C1CCC(N2Cc3cc(C(=O)O)c(F)cc3C2=O)C(=O)N1 (centres unmarked) | – | CD-1 mouse, male | oral, 10 mg/kg parent drug, 2 h | plasma concentration | 0.142 ± 0.109 µg/mL |
| CC(C)n1ncc2c(C(=O)NC[C@@H](C)N)cc(C3CC3)nc21 | – | mouse BALB/c female, plasma | intraperitoneal, 30 mg/kg, 0.5 h | plasma concentration | 1.07 µg/mL and 1.38 µg/mL and 1.14 µg/mL and 1.37 µg/mL |
| C=CC(=O)N1CCCC(n2c(=O)c3ncccc3n(Cc3ccc(Oc4ccccc4)cc3)c2=O)C1 (centres unmarked) | – | male BALB/c mouse, plasma | intraperitoneal, 200 mg/kg, 0.0833 h | plasma concentration | 32.1 µg/mL |
| O=c1c(-c2cnn(-c3ccc(Cl)cc3)c2)c(C(F)(F)F)oc2c(O)c(O)ccc12 | – | mouse | intraperitoneal, 100 mg/kg, DMSO vehicle | plasma clearance | 12.4 L/h/kg |
| [2H]C([2H])(N)C([2H])([2H])NC(=O)c1cc(C2CC2)nc2c1cnn2C(C)C | – | mouse BALB/c female, plasma | intraperitoneal, 50 mg/kg, 4 h | plasma concentration | 0.911 µg/mL and 1.11 µg/mL and 0.92 µg/mL and 1.39 µg/mL |
